Measured values from different studies.
A part holds a random share of what one study measured. Changes are numbered by the printed parent chain.

Study 1 — Variant: R113D; method: DHFR PCA, deep sequencing; medium: yeast; relative to: wild-type fitted maximum; direction: higher = stronger binding; measurement: relative binding score
Target: ABI1, truncated, D143A, DHFR fusion (Arabidopsis thaliana)
Setting: methotrexate growth selection, single substitutions
Starting sequence: PYL1, truncated, DHFR fusion (Arabidopsis thaliana); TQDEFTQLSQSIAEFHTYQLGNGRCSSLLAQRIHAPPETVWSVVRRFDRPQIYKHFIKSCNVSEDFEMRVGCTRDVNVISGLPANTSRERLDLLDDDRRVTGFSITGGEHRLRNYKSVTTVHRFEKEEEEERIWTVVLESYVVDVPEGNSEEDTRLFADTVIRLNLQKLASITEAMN; partner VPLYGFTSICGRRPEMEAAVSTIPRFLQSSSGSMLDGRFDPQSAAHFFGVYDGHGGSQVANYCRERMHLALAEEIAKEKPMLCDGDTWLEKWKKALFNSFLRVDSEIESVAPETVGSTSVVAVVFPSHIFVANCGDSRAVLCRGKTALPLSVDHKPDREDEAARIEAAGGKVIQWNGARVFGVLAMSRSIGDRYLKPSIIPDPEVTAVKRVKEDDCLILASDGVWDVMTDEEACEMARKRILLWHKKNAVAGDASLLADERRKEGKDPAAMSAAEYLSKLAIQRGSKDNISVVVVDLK
with: (+)-ABA 0.032 µM: -2.36%
with: (+)-ABA 58 µM: 64.2%
with: (+)-ABA 4.8 µM: 26.8%
with: (+)-ABA 0.0091 µM: -5.07%
with: (+)-ABA 17 µM: 60.5%
with: (+)-ABA 1.4 µM: 12.1%

Study 2 — method: aptamer microarray, sandwich; form: DNA with 2'F-ANA; medium: in vitro; tested at: 200 nM; with: Cy3 exosite-II aptamer, 400 nM; direction: higher = stronger binding; measurement: mean fluorescence intensity; sequence: GGTTGGTGTGGTTGG
Target: Prothrombin, mature alpha-thrombin (F2, Homo sapiens, UniProt P00734)
Setting: whole 15-mer aptamer, many near background
2'F-ANA at 5 7 8 9 11 12 13: 94.4 a.u.
2'F-ANA at 3 4 8 9 10 12 14 15: 212 a.u.
2'F-ANA at 1 3 6 7 10 11 12 13 14: 62.5 a.u.
2'F-ANA at 1 2 4 8 9: 127 a.u.
2'F-ANA at 1 2 3 9 10 14 15: 64.9 a.u.
2'F-ANA at 7 8 10 12 14: 131 a.u.
2'F-ANA at 3 4 6 10 11 13 14: 150 a.u.
2'F-ANA at 1 3 4 6 7 8 9 10 11 14 15: 56.1 a.u.

Study 3 — method: RNA Bind-n-Seq; form: RNA; medium: in vitro; tested at: 20 nM; setting: 6-mer, flanks averaged, single round; with: 150 mM LiCl; relative to: input library; direction: higher = stronger binding; measurement: 6-mer enrichment (R)
Target: TAR DNA-binding protein 43, full length, His tag (TARDBP, Homo sapiens, UniProt Q13148, residues 1-414)
UUCAGU: 0.938
CGGGUA: 0.981
GACUUG: 0.981
AAGAUC: 0.812
AGGGCC: 1.02
GCGGGA: 1.11
UACGAG: 0.891
CUCGGC: 0.877

Mixed results
Starting sequence: PafA, mature enzyme, eGFP fusion (Elizabethkingia meningoseptica, UniProt Q9KJX5); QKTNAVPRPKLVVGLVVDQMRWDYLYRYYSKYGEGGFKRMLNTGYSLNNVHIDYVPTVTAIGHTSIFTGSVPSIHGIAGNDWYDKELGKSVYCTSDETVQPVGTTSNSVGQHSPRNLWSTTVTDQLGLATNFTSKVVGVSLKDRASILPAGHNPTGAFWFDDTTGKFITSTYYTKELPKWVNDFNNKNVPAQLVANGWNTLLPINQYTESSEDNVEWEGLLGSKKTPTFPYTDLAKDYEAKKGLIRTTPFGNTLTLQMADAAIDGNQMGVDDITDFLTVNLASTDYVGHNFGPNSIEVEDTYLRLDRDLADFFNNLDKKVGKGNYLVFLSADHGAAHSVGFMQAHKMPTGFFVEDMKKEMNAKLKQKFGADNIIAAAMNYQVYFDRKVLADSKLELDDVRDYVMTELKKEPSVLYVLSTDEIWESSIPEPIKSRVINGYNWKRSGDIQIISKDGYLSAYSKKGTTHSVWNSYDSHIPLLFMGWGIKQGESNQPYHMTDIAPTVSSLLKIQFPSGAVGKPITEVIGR
L202G — phosphate dissociation constant (inorganic phosphate, free oxyanion; microfluidic competitive inhibition; in vitro, cell-free expressed; not given, derived from inhibition constants, unchanged parent 615000 nM; lower = stronger binding): 513 µM

Repeated from above (study 2):
2'F-ANA at 3 4 6 10 11 13 14: 150 a.u.
